{"data": "Published values pooled from the literature", "note": "Numbered parts are unrelated; each lists some results of a single study. Changes are numbered by the printed parent chain."}
{"data": "Sample 1", "target": "inorganic phosphate, free oxyanion", "method": "microfluidic competitive inhibition", "sample": "in vitro, cell-free expressed", "tested at": "not given", "setting": "derived from inhibition constants, unchanged parent 615000 nM", "direction": "lower = stronger binding", "starting sequence": "PafA, mature enzyme, eGFP fusion (Elizabethkingia meningoseptica, UniProt Q9KJX5); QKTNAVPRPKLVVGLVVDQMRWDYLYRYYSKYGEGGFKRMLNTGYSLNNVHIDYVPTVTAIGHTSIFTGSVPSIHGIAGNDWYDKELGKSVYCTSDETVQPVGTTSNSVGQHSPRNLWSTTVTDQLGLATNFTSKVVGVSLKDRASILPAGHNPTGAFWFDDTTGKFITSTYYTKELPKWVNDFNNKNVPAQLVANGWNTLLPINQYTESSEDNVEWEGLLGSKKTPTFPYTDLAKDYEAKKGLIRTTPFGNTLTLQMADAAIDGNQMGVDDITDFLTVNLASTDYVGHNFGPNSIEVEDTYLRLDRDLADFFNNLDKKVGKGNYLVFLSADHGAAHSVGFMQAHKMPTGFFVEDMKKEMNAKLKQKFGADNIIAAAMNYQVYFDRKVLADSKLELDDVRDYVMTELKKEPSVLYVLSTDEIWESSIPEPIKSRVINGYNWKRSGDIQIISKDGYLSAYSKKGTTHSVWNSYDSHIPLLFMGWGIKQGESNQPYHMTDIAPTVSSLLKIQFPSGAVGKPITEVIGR"}
{"Change": "M40V", "phosphate dissociation constant": "809 µM"}
{"Change": "G151A", "phosphate dissociation constant": "486 µM"}
{"Change": "I168V", "phosphate dissociation constant": "620 µM"}
{"Change": "D143G", "phosphate dissociation constant": "2320 µM"}
{"Change": "N252G", "phosphate dissociation constant": "658 µM"}
{"Change": "A390V", "phosphate dissociation constant": "654 µM"}
{"Change": "I273G", "phosphate dissociation constant": "610 µM"}
{"Change": "L407G", "phosphate dissociation constant": "504 µM"}
{"Change": "H495V", "phosphate dissociation constant": "557 µM"}
{"Change": "S211V", "phosphate dissociation constant": "578 µM"}
{"Change": "S46V", "phosphate dissociation constant": "588 µM"}
{"Change": "V189G", "phosphate dissociation constant": "525 µM"}
{"Change": "A515G", "phosphate dissociation constant": "598 µM"}
{"Change": "G33V", "phosphate dissociation constant": "595 µM"}
{"Change": "I373G", "phosphate dissociation constant": "546 µM"}
{"Change": "P9V", "phosphate dissociation constant": "438 µM"}
{"Change": "K432G", "phosphate dissociation constant": "469 µM"}
{"Change": "K363V", "phosphate dissociation constant": "695 µM"}
{"Change": "A375G", "phosphate dissociation constant": "578 µM"}
{"Change": "I499V", "phosphate dissociation constant": "586 µM"}
{"Change": "S471V", "phosphate dissociation constant": "504 µM"}
{"Change": "I450V", "phosphate dissociation constant": "601 µM"}
{"Change": "D233V", "phosphate dissociation constant": "597 µM"}
{"Change": "R386V", "phosphate dissociation constant": "728 µM"}
{"Change": "T274G", "phosphate dissociation constant": "526 µM"}
{"data": "Sample 2", "target": "UDP-N-acetylglucosamine--peptide N-acetylglucosaminyltransferase 110 kDa subunit (OGT, Homo sapiens, UniProt O15294)", "read-out": "binding", "method": "phage display NGS", "molecule type": "peptide", "relative to": "input library", "chain of UniProt O15294 (whole entry, looked up)": "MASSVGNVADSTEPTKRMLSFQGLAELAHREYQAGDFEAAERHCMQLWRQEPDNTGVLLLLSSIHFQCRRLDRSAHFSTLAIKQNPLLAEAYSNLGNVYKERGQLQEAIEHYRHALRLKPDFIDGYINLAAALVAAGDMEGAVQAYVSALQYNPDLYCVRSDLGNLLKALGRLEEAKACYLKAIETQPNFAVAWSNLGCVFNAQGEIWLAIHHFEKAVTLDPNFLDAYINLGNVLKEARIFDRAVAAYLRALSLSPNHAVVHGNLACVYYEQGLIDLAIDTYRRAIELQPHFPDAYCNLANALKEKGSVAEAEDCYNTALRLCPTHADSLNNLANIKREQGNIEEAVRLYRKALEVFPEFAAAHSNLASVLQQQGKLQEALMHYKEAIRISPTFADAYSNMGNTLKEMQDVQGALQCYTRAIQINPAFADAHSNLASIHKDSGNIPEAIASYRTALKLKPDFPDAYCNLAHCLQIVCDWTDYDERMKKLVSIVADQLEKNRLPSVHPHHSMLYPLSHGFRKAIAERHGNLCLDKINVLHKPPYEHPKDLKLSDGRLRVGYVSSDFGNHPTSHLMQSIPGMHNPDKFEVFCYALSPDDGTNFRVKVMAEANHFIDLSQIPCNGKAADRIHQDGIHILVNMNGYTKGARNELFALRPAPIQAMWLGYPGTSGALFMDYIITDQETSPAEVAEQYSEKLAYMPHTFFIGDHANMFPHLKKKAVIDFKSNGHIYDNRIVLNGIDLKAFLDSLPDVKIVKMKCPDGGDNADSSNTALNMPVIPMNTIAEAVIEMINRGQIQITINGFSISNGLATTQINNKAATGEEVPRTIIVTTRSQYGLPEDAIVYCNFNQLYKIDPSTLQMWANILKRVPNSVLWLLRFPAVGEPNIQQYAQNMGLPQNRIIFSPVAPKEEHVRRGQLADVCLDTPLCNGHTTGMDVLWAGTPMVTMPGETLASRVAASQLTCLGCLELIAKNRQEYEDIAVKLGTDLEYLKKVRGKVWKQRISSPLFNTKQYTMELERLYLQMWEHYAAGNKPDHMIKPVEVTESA"}
{"Molecule": "YQNHTHHVYEVYHV", "minimum log2 enrichment ratio": 1.51}
{"Molecule": "QMQSPYSPQYQITV", "minimum log2 enrichment ratio": 3.85}
{"Molecule": "QPQHHMWQHHAYDIK", "minimum log2 enrichment ratio": 2.7}
{"Molecule": "HKTWHPHHMVQTPN", "minimum log2 enrichment ratio": 2.17}
{"Molecule": "YTSHYPVHVHHYPQ", "minimum log2 enrichment ratio": 3.64}
{"Molecule": "TSFAPEYIIDYIRPV", "minimum log2 enrichment ratio": 3.99}
{"Molecule": "HNYHNHRVQMEYRGE", "minimum log2 enrichment ratio": 2.51}
{"Molecule": "SYYPYYQISLPEQVR", "minimum log2 enrichment ratio": 3.38}
{"Molecule": "ESKQTRFHPQYQITI", "minimum log2 enrichment ratio": 4.25}
{"Molecule": "THTHFYWQPHHRGV", "minimum log2 enrichment ratio": 2.66}
{"Molecule": "YQPYYPMYQIVRNNS", "minimum log2 enrichment ratio": 3.06}
{"Molecule": "HLHHYDDYYTHDPVI", "minimum log2 enrichment ratio": 2.77}
{"Molecule": "SHTHTQRDFHGIYSN", "minimum log2 enrichment ratio": 3.29}
{"Molecule": "HQQLVHGAWHHPIT", "minimum log2 enrichment ratio": 2.5}
{"Molecule": "QHYQHHSHDKSHPYE", "minimum log2 enrichment ratio": 2.05}
{"Molecule": "NFLPYYLIPVRNGGI", "minimum log2 enrichment ratio": 3.41}
{"Molecule": "HQSHYQHTSPAIIHK", "minimum log2 enrichment ratio": 2.28}
{"Molecule": "HFQIHQHHFMGDDD", "minimum log2 enrichment ratio": 3.27}
{"Molecule": "NPPHSVHHTQIHRHN", "minimum log2 enrichment ratio": 2.8}
{"data": "Sample 3", "target": "Interferon regulatory factor 7, full length, phosphomimetic (IRF7, Homo sapiens, UniProt Q92985, residues 1-503, S471D/S472D/S475D/S476D/S477D/S483D/S484D/S487D)", "method": "protein-binding microarray", "molecule type": "double-stranded DNA, one strand shown", "sample": "in vitro", "tested at": "2200 nM top", "setting": "60-bp whole probe", "added": "salmon DNA 0.4 mg/ml", "relative to": "random background probes", "direction": "higher = stronger binding", "shared flanks, not repeated": "GCCTAGCAC … GTCTTGATTCGCTTGACGCTGCTG", "chain of UniProt Q92985 (whole entry, unmodified, looked up)": "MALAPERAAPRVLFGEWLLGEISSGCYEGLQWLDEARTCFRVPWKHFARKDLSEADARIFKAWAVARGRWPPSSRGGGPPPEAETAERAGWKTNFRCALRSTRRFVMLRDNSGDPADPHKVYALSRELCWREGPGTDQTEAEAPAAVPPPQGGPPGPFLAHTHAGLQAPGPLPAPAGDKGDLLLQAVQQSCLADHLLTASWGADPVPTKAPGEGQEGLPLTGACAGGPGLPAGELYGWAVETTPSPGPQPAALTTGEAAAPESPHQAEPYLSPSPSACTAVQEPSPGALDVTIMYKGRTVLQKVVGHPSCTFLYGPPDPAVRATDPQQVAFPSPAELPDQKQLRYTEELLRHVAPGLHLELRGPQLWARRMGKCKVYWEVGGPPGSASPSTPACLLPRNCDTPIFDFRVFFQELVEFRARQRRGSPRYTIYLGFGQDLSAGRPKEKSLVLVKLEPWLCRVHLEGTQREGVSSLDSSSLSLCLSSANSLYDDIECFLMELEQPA"}
{"Sequence": "TTAGATCTCAGTTCCGATTAGTGCTAG", "fitted relative affinity [z-score]": 0.903}
{"Sequence": "TTAGGTCTGGACTATCGGTTAGTGCTA", "fitted relative affinity [z-score]": 0.0448}
{"Sequence": "GACGGTCTCATACTGCTGACGTGCTAG", "fitted relative affinity [z-score]": 0.298}
{"Sequence": "TTAGGTTTCGACTTTCGGTTCGTGCTA", "fitted relative affinity [z-score]": 15.2}
{"Sequence": "GCCCATCTCTGCTCCTTCTGGTGCTAG", "fitted relative affinity [z-score]": 0.994}
{"Sequence": "AAATGATTGGTTGAACATGAGTGCTAG", "fitted relative affinity [z-score]": -0.217}
{"Sequence": "GCCGGACTGGACACTGGGGACGTGCTA", "fitted relative affinity [z-score]": -1.12}
{"Sequence": "TTAGATTTCTGTTCCGATTAGTGCTAG", "fitted relative affinity [z-score]": 2.65}
{"data": "Single results of other studies"}
{"Structure (SMILES)": "CC(CCc1ccccc1)NC(C)C(O)c1ccc(O)cc1 (centres unmarked)", "cell line": "mouse MPNST tumor cells", "assay": "high-content nuclear imaging, refers to: cell number", "conditions": "10 µM, 12 h, mean of 2 replicates", "scale": "relative to: plate mean, higher = more cells", "endpoint": "nuclei count", "result": "-0.982 z-score"}
